Results from different studies.
A part holds a random share of what one study measured.

Set 1 — method: protein-binding microarray; form: double-stranded DNA, one strand shown; medium: in vitro; concentration: 250 nM; setting: 60-bp whole probe; together with: salmon DNA 0.4 mg/ml; baseline: random background probes; direction: higher = stronger binding; shared flanks, not repeated: GCCTAGCAC … GTCTTGATTCGCTTGACGCTGCTG
Target: Interferon regulatory factor 5, full length, phosphomimetic (IRF5, Homo sapiens, UniProt Q13568-2, residues 1-514, K96S/S451D/S453D/S456D/S462D)
With `TTGCGTCTGGGTGTTTTCTAGTGCTAG` the log fluorescence was 0.97 z-score.
With `TTAGGTATCGGGTATCGTTTAGTGCTA` the log fluorescence was 5.46 z-score.
`TTAGGTATCGACACTGGGTTAGTGCTA` has a log fluorescence of 2.15 z-score.
`GACGGACGGCTTATCCTGACGTGCTAG` has a log fluorescence of -0.676 z-score.
For `GACGGTCTCCTACTGGTGACGTGCTAG`, the log fluorescence was -0.527 z-score.
`TTGGGTTCCCTTTTCCTTTAGTGCTAG` has a log fluorescence of 0.324 z-score.
With `GACGGACTGCTACTGCTGAGGTGCTAG` the log fluorescence was -0.653 z-score.
`GACGGTTTCGTGTTTCGGGACGTGCTA` has a log fluorescence of 5.25 z-score.

Set 2 — effect on: enzyme activity; mode: inhibitor; concentration: 20 µM
Target: Replicase polyprotein 1ab, polymerase (rep, Severe acute respiratory syndrome coronavirus 2, UniProt P0DTD1)
`COc1c(C)cnc(Cn2cc(C#CCC(C)(C)O)c3c(Cl)nc(N)nc32)c1C` gave an inhibition of -12.7%.
`CCOCC(O)COc1ccc(NC(=O)CC[S+](C)C)cc1` (centres unmarked) has an inhibition of -2.12%.
For `Cc1cccc(C)c1NC(=O)C[N+](C)(C)C`, the inhibition was 4.42%.
With `O=S(=O)(N=Cc1c(O)ccc2ccccc12)c1cccs1` the inhibition was 0.44%.
The inhibition of `C=Cc1cc(O)cc2nc(-c3ccc(O)c(F)c3)oc12` is reported as 6.89%.
With `C[C@@H]1C(=O)O[C@H]2C[C@@]34[C@H]5C[C@@H](C(C)(C)C)[C@]36[C@@H](OC(=O)[C@@H]6O)O[C@@]4(C(=O)O5)[C@]21O` the inhibition was -8.28%.
For `CCCCOc1ccc(OCCCN2CCOCC2)cc1`, the inhibition was 22.4%.
`Cc1ccc2[nH]c(=O)c(C3=NN(C(=O)CCC(=O)O)C(c4ccc(Br)cc4)C3)c(-c3ccccc3)c2c1` (centres unmarked) gave an inhibition of 30.7%.
`Nc1nc2cc(-c3ccc4ncc(C(=O)N5CCOCC5)n4c3)ccc2o1` gave an inhibition of 2.7%.
`O=C(Nc1cnc(Cl)nc1)c1ccc(F)c(F)c1` has an inhibition of 1.68%.
The inhibition of `CCC(=O)OCC(=O)[C@@]1(OC(=O)CC)[C@@H](C)C[C@H]2[C@@H]3CCC4=CC(=O)C=C[C@]4(C)[C@@]3(F)[C@@H](O)C[C@@]21C` is reported as 1.62%.
With `O=C(O)CNC(=O)C1C(=O)N(C2CCCCC2)C(=O)N(C2CCCCC2)C1=O` the inhibition was -0.82%.

Set 3 — method: protein binding microarray; form: double-stranded DNA, one strand shown; medium: in vitro; concentration: not given; baseline: not given; direction: higher = stronger binding
Target: Histone acetyltransferase KAT6A, winged helix 2, GST fusion (KAT6A, Homo sapiens, UniProt Q92794, residues 85-181)
Setting: 8-mer, flanks averaged, mean of 2 arrays, mostly near background
Construct (chain): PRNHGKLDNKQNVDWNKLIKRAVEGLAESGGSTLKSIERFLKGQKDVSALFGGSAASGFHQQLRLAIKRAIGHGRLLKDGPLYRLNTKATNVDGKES
For `GAGAGGAA`, the E-score was 0.0572.
The E-score of `ACCAATCT` is reported as 0.0321.
The E-score of `AGCTACTA` is reported as 0.00273.
The E-score of `GTATACCA` is reported as -0.0239.
`AGGGGCCG` gave an E-score of 0.0836.
`ATTCACAG` gave an E-score of -0.0116.
`AGAACATA` has an E-score of -0.104.
For `GACTACCC`, the E-score was -0.216.

Further values, each from its own experiment
`COc1ccccc1OCCNCC(O)COc1cccc2[nH]c3ccccc3c12` (centres unmarked) gave a GFP-positive cells of 38.7% (HEK-293T; pseudovirus infection, FDA-approved drug library screen; VSV pseudotyped with SARS-CoV-2 spike; 10 µM, 16 h; baseline: vehicle-treated).
